Literature values that unrelated publications cite.
Lines come from different studies, so protocols differ. ± gives the spread as reported.

Nc1nc2[nH]c(CCCCCCc3ccc(C(=O)N[C@@H](CCC(=O)O)C(=O)O)cc3)cc2c(=O)[nH]1
IC50 (CHO PC43-10, human RFC-expressing; cell growth): > 1 µM

COc1c2occc2cc2ccc(=O)oc12
IC50 (neuroblastoma cells; cell growth; without photoactivation): 56.3 µM

CC(=O)N[C@H](CCNC(=O)c1cc(NC(=O)c2cc(NC(=O)c3cc(NC(=O)c4nccn4C)cn3C)cn2C)cn1C)C(=O)Nc1cn(C)c(C(=O)Nc2cc(C(=O)Nc3cc(C(=O)Nc4cc(C(=O)NCCCN(C)CCCN[14C](=O)c5cccc([14C](=O)O)c5)n(C)c4)n(C)c3)n(C)c2)n1
IC50 (LNCaP; non-radioactive analogue): 2.1 µM

CCOc1cc(C(C)(C)C)ccc1C1=N[C@@](C)(c2ccc(Cl)cc2)[C@@](C)(c2ccc(Cl)cc2)N1C(=O)N1CCN(CCCS(C)(=O)=O)CC1
IC50 (TP53 wild-type cell lines; cell growth): 0.44 µM

Cc1ccc(C(C)C)cc1.F[P-](F)(F)(F)(F)F.NCCN.[Cl][Ru+]
IC50 (A549; cell growth): 7.1 µM

Nc1nc2[nH]c(CCCc3ccc(C(=O)N[C@@H](CCC(=O)O)C(=O)O)s3)cc2c(=O)[nH]1
IC50 (KB; cell growth; without folic acid): 0.00026 µM

Cc1cc(C)n(-c2nc(NN=Cc3c[nH]c4ccccc34)nc(Nc3ccc(Br)cc3)n2)n1
IC50 (A549 or SK-BR-3): ~5 µM

COc1ccc(CCN(C)C(=O)/C=C/c2ccc(O)cc2)cc1
IC50 (neutrophils; superoxide production; added: fMLF): 12 µM

Nc1nc2[nH]c(CCCc3ccc(C(=O)N[C@@H](CCC(=O)O)C(=O)O)cc3)cc2c(=O)[nH]1
IC50 (CHO PC43-10, human RFC-expressing; cell growth): 0.649 µM

Nc1nc2sc(CCCCc3ccc(C(=O)N[C@@H](CCC(=O)O)C(=O)O)cc3)cc2c(=O)[nH]1
IC50 (KB; cell growth; 96 h, added: folic acid 200 nM): > 1 µM

C=C(CO)[C@@H]1CC[C@]2(C)CC[C@]3(C)[C@H](CC[C@@H]4[C@@](C)(CC(=O)O)[C@H](C(C)(C)C(=O)O)CC[C@]43C)[C@@H]12
IC50 (human neutrophils; elastase release; added: fMLF): 2.2 µM

CC[C@@H](C(=O)[C@@H](C)[C@@H](O)[C@H](C)[C@@H]1O[C@@H]([C@@H](CC)C(=O)O)CC[C@@H]1C)[C@H]1O[C@]2(C=C[C@@H](O)[C@]3(CC[C@@](C)([C@H]4CC[C@](O)(CC)[C@H](C)O4)O3)O2)[C@H](C)C[C@@H]1C
IC50 (HMLER-shEcad; mammosphere viability): 18.5 ± 1.5 µM

O=C(Oc1ccc(Br)cc1)[c-]1cccc1.[Fe+2].c1cc[cH-]c1
IC50 (MCF-10A; cell growth): > 250 µM

C[C@@]12CCC[C@@](C)(C(=O)O)[C@H]1CC[C@@]13C[C@@H](CC[C@H]12)[C@@](O)(CO)C3
IC50 (human neutrophils; calcium flux, inhibitor; added: fMLF): ~30 µM

Nc1nc2[nH]c(CCCc3ccc(C(=O)N[C@@H](CCC(=O)O)C(=O)O)s3)cc2c(=O)[nH]1
IC50 (KB; cell proliferation, inhibitor): 0.00026 ± 3e-05 µM

O=c1c2ccccc2[se]n1-c1ccccc1
IC50 (Kupffer cells; nitric oxide generation): ~3 µM

CNC(=N)NCCC[C@H](N)C(=O)O
IC50 (RAW264.7; NO production; added: LPS): 25.5 µM

COC1=C(OC)[C@H](O)[C@H](C/C=C(\C)CC/C=C(\C)CCC=C(C)C)[C@@H](C)C1=O
IC50 (Hep3B; cell growth; 10% FBS; 72 h): 0.13 ± 0.02 µM

C=C1C(=O)O[C@H]2[C@H]1CC/C(C)=C/CC[C@@]1(C)O[C@@H]21
IC50 (HL-60; cell growth, inhibitor): 9.3 ± 3.8 µM

CC(C)C[C@H]1NC(=O)[C@H](CC(=O)O)NC(=O)CNC(=O)[C@H](CCCNC(=N)N)NC(=O)[C@H](C)NC1=O
IC50 (WM-115; cell adhesion, inhibitor; added: immobilized CagL wild type): 2.31 µM

CCn1c(C)c(C(=O)O)c(-c2cccc(N3CCN(c4ccc(NS(=O)(=O)c5ccc(N[C@H](CCN(C)C)CSc6ccccc6)c([N+](=O)[O-])c5)cc4)CC3)c2)c1-c1ccc(Cl)cc1
IC50 (multiple cancer cell lines; cell growth): ~0.01 µM

Cc1cc2ccc3c(c2cc1O)CCC(=O)C3(C)C
IC50 (human neutrophils; elastase release; added: fMLF): 4.3 µM

COc1ccc(N(C)c2nc(C)nc3[nH]ccc23)cc1
IC50 (SK-OV-3; cell growth): 0.278 ± 0.019 µM

C/C(=C/Cc1c(O)cc2oc(C)cc(=O)c2c1O)CO
IC50 (neutrophils; superoxide production; added: fMLF): 13.4 µM

C=CC(=O)N1CCC[C@@H](n2nc(-c3ccc(Oc4ccccc4)cc3)c3c(N)ncnc32)C1
IC50 (Raji; cell proliferation): 20.9 µM

O=C(O)/C=C/c1ccc(O)c(O)c1
IC50 (rat bone marrow culture; osteoclastogenesis, inhibitor): 5.6 µM

C=C(C)[C@@H](CC=C(C)C)C[C@@]12C[C@@H](CC=C(C)C)C(C)(C)[C@]3(C=CC(C)(C)OC3=C(C(=O)c3ccccc3)C1=O)C2=O
IC50 (neutrophils; superoxide production; added: fMLF): 0.11 µM

CC[C@H](C)[C@H](N)C(=O)N[C@H](C(=O)NCC(=O)N[C@@H](CC(C)C)C(=O)N[C@@H](CCSC)C(=O)N[C@H](C(=O)NCC(=O)NCC(=O)N[C@H](C(=O)N[C@H](C(=O)N[C@H](C(=O)N[C@@H](C)C(=O)O)[C@@H](C)CC)C(C)C)C(C)C)C(C)C)[C@@H](C)CC
IC50 (PC-12, differentiated; amyloid-β42 neurotoxicity, inhibitor, refers to: MTT reduction): 14 ± 2 µM

CC1(C)C=Cc2cc3ccc(=O)oc3cc2O1
IC50 (human neutrophils; elastase release; added: fMLF): 24.1 µM

COc1ccc(Nc2nc(N)c(C(=O)c3ccccc3)s2)cc1
IC50 (various cancer cell lines; cell growth): 0.35 µM

O=CCc1ccc(O)c(O)c1
IC50 (PC6-3; cell viability, MTT; 2 h): ~65 µM

N=C(N)NCCC[C@H](NC(=O)[C@H](Cc1c[nH]c2ccccc12)NC(=O)[C@H](CCC(N)=O)NC(=O)[C@H](Cc1c[nH]c2ccccc12)NC(=O)[C@H](CCCNC(=N)N)NC(=O)[C@H](Cc1c[nH]c2ccccc12)NC(=O)[C@H](CCC(N)=O)NC(=O)[C@H](Cc1c[nH]c2ccccc12)NC(=O)[C@@H](N)CCCNC(=N)N)C(N)=O
IC50 (Caco-2; cell growth): 86 µM

Cn1cnc2c(F)c(Nc3ccc(Br)cc3Cl)c(C(=O)NOCCO)cc21
IC50 (solid tumour cell lines; ERK1/2 phosphorylation, inhibitor): < 0.04 µM

COc1c(O)ccc2c1cnc1c3cc4c(cc3ccc21)OCO4
IC50 (human neutrophils; elastase release; added: fMLF): 6.3 µM

COC(=O)c1cc2c(C(F)(F)F)cc(-c3ccccc3)cc2n1O
IC50 (HeLa; cell growth, SRB; 72 h, normoxia): 33.4 ± 1 µM
